{"data": "Experimental data from different studies", "note": "Each line is one published result; not all experiments were run side by side. Several values in a cell are separate wells, animals, samples, runs or records. Numbers after ± are the reported error."}
{"SMILES": "COC(=O)c1ccccc1-c1c2ccc(=O)cc-2oc2cc(OCCCCCCCCCCC[P+](c3ccccc3)(c3ccccc3)c3ccccc3)ccc12", "cell line": "HeLa cells", "test": "confocal microscopy", "setting": "together with: MitoTracker Deep Red", "endpoint": "Pearson coefficient", "value": "0.896 ± 0.006"}
{"SMILES": "O=C(CCCCC1SCC2NC(=O)NC21)NCCCCC1CNC(=O)C(=O)N1CC1CCCN1CC(CC1CCCCC1)N1CC(Cc2ccc(O)cc2)N(CCc2ccccc2)C(=O)C1=O (stereo not shown)", "cell line": "WM 266-4", "test": "CellTiter-Glo", "setting": "100 µM, 72 h", "endpoint": "maximal viability inhibition", "value": "42%"}
{"SMILES": "N#Cc1cccc(-c2ccc(=O)n(Cc3cccc(-c4ncc(OCC5CCN(CC(=O)N6CCN(c7ccc8c(c7)C(=O)N(C7CCC(=O)NC7=O)C8=O)CC6)CC5)cn4)c3)n2)c1 (stereo not shown)", "cell line": "EBC-1", "test": "annexin V flow cytometry", "setting": "10 nM, 48 h", "endpoint": "apoptotic cells", "value": "41.7%"}
{"SMILES": "CC(C)Cc1ccc(C(C)C(=O)[O][Pt]([NH2])([NH2])([Cl])([Cl])[O]C(=O)C(Cl)Cl)cc1 (stereo not shown)", "cell line": "six human cancer cell lines", "test": "MTT", "scale": "baseline: cisplatin over compound", "endpoint": "mean IC50 ratio", "value": "~31"}
{"SMILES": "COc1cc(O)cc2c1-c1ccc(O)c(OC)c1CC2", "cell line": "BV-2", "test": "ELISA, measured: MCP-1", "setting": "concentration not given, pretreatment, together with: LPS", "endpoint": "cytokine release", "value": "decreased"}
{"SMILES": "CCC(=C(c1ccc(Cl)cc1)c1ccc(OCCCN(C)C)cc1)c1ccc(OC)cc1", "cell line": "SK-MEL-2", "test": "cell growth or viability, SRB", "endpoint": "GI50", "value": "8.01 µM"}
{"SMILES": "COc1ccc(C2=Nn3c(NN=C4C(=O)N(Cc5ccccc5)c5ccc(Cl)cc54)nnc3SC2)cc1", "cell line": "IGROV-1", "test": "cell growth or viability, SRB", "setting": "10 µM", "endpoint": "inhibition", "value": "33%"}
{"SMILES": "COc1cc2c(cc1C)NC(=O)C2=Cc1c(Cl)[nH]c2c1ccc1ccccc12", "cell line": "melanoma subpanel of NCI-60", "setting": "48 h", "endpoint": "TGI", "value": "7.94 µM"}
{"SMILES": "O=C(O)CCC(NP(=O)(O)OCCC[C@@H](NC(=O)CC[C@H](NC(=O)CCCCCNC(=O)c1ccc([18F])cc1)C(=O)O)C(=O)O)C(=O)O (stereo partly shown)", "cell line": "CWR22Rv1", "setting": "concentration not given, 4 h", "endpoint": "internalization", "value": "90.7% and 91%"}
{"SMILES": "COc1cc(CNC(=O)C[C@H](C)CCC=C(C)C)ccc1OCc1cn(-c2ccc(Cl)cc2Cl)nn1", "cell line": "SK-MEL-2 melanoma cells", "test": "SRB", "setting": "10 µM, 48 h", "endpoint": "growth percent", "value": "71.7%"}
{"SMILES": "COc1cccc2c1C(=O)c1c(O)c3c(c(O)c1C2=O)C[C@@](O)(C(=O)CO)C[C@@H]3O[C@H]1C[C@H](N)[C@H](O)[C@H](C)O1", "cell line": "human dermal fibroblasts", "test": "DCFDA fluorescence", "setting": "concentration not given, 4 h", "scale": "baseline: DMSO", "endpoint": "intracellular ROS level", "value": "increased"}
{"SMILES": "COc1cc(CNC(=O)C[C@H](C)CCC=C(C)C)ccc1OCc1cn(-c2ccccc2)nn1", "cell line": "SF-539 CNS cancer cells", "test": "SRB", "setting": "10 µM, 48 h", "endpoint": "growth percent", "value": "96%"}
{"SMILES": "COC(=O)c1ccccc1-c1c2ccc(=O)cc-2oc2cc(OCCCCC[P+](c3ccccc3)(c3ccccc3)c3ccccc3)ccc12", "cell line": "HeLa cells", "test": "confocal microscopy", "setting": "together with: MitoTracker Deep Red", "endpoint": "Pearson coefficient", "value": 0.568}
{"SMILES": "O=Cc1c(O)ccc2ccccc12", "cell line": "HUVEC", "test": "RNA sequencing, measured: HOXB9", "setting": "75 µM, 24 h", "scale": "baseline: DMSO", "endpoint": "log2 fold change", "value": 2.79}
{"SMILES": "Cc1nn(-c2ccc(S(=O)(=O)N[C@H](CO)CC(C)C)cc2)c2nn3nnnc3nc12", "cell line": "HT-29", "test": "AO/EB staining", "setting": "0.5 µM, 24 h", "endpoint": "necrotic cells", "value": "21 ± 1.41%"}
{"SMILES": "COc1cc(CNC(=O)C[C@H](C)CCC=C(C)C)ccc1OCc1cn(-c2ccccc2[N+](=O)[O-])nn1", "cell line": "SK-MEL-2 melanoma cells", "test": "SRB", "setting": "10 µM, 48 h", "endpoint": "growth percent", "value": "66.3%"}
{"SMILES": "CCCCCCCCCCCC(=O)OC[C@H]1O[C@@H](n2cnc(N)nc2=O)C[C@@H]1OC(=O)CCCCCCCCCCC", "cell line": "HEL", "test": "CyQuant", "setting": "72 h", "endpoint": "lowest concentration reducing viability", "value": "> 125 nM"}
{"SMILES": "COc1cc(/C=C/C(=O)O)ccc1O", "cell line": "BV-2", "test": "ELISA", "setting": "5 µM, together with: LPS 1.0 µg/mL", "endpoint": "TNF-α level", "value": "539 pg/mL"}
{"SMILES": "NC(=O)C[C@H]1CCc2sc3ncnc(O[C@H]4CC[C@H](N5CCOCC5)CC4)c3c21", "cell line": "GCB DLBCL lines, wild-type MYD88", "setting": "concentration not given, 4 d", "endpoint": "viability", "value": "no effect"}
{"SMILES": "COc1cc(CNC(=O)C[C@H](C)CCC=C(C)C)ccc1O", "cell line": "U-251 CNS cancer cells", "test": "SRB", "setting": "10 µM, 48 h", "endpoint": "growth percent", "value": "98.7%"}
{"SMILES": "Cn1cnnc1Sc1c2c(c(C#N)c3nc4ccccc4n13)CCCC2", "cell line": "Ero1α/β-null mouse platelets", "setting": "2.5 µM, together with: thrombin 0.015 U/mL", "endpoint": "platelet aggregation", "value": "no effect"}
{"SMILES": "CCc1noc(CC)c1C(=O)O[C@H]1C(C)=C[C@]23C(=O)[C@@H](C=C(CO)[C@@H](O)[C@]12O)[C@H]1[C@@H](C[C@H]3C)C1(C)C", "cell line": "human primary epidermal keratinocytes", "test": "CyQUANT DNA content", "setting": "above 100 nM, 72 h", "scale": "baseline: vehicle", "endpoint": "cell number", "value": "20%"}
{"SMILES": "COc1cc(CNC(=O)C[C@H](C)CCC=C(C)C)ccc1OCc1cn(-c2ccc(Cl)c(Cl)c2)nn1", "cell line": "RPMI-8226 leukaemia cells", "test": "SRB", "setting": "10 µM, 48 h", "endpoint": "growth percent", "value": "77.6%"}
{"SMILES": "CC(=O)OC[C@H]1O[C@@H](Sc2sc(C(=O)c3ccc(Br)cc3)c(N)c2-c2nc3ccccc3s2)[C@H](OC(C)=O)[C@@H](OC(C)=O)[C@H]1OC(C)=O", "cell line": "Hs-578T", "test": "SRB", "setting": "10 µM, 48 h", "scale": "baseline: untreated", "endpoint": "growth", "value": "95.4%"}
{"SMILES": "Cn1ncc2cc(-c3cncc(Cl)c3N3CCC4(CCNC4=O)CC3)ccc21", "cell line": "LS174T", "test": "TCF/LEF luciferase reporter, inhibitor", "setting": "WNT pathway", "endpoint": "IC90", "value": "0.715 µM"}
{"SMILES": "COc1cc(CNC(=O)C[C@H](C)CCC=C(C)C)ccc1OCc1cn(-c2cccc(C(F)(F)F)c2)nn1", "cell line": "SF-539 CNS cancer cells", "test": "SRB", "setting": "10 µM, 48 h", "endpoint": "growth percent", "value": "16.4%"}
{"SMILES": "O=C(Nc1ccc(C(F)(F)F)cc1Cl)c1cc(Cl)ccc1O", "cell line": "C4-2B MDVR cells", "test": "ELISA", "setting": "1 µM, 48 h, FBS conditions", "endpoint": "PSA level", "value": "decreased"}
{"SMILES": "CC(=NNC(=S)NN=C(C(=NO)c1ccccc1)c1ccccc1)c1ccccc1", "cell line": "MCF7", "test": "Western blot, measured: NF-κB p65", "setting": "IC50 concentration, 24 h", "scale": "baseline: untreated", "endpoint": "relative protein level", "value": "0.81 ± 0.06"}
{"SMILES": "COc1cc(C(=O)c2[nH]c(N)nc2-c2cccs2)cc(OC)c1OC", "cell line": "HeLa cells", "test": "Hoechst staining", "setting": "75 nM", "endpoint": "mitotic index", "value": "12 ± 2.3"}
{"SMILES": "CC[C@@]12CC(O)c3[nH]c4ccccc4c3CCN(C[C@H]3O[C@H]31)C2 (stereo partly shown)", "cell line": "BV-2", "test": "NO production", "setting": "50 µM, 1 h, 24 h stimulation, together with: LPS 800 ng/mL", "scale": "baseline: LPS control", "endpoint": "inhibition", "value": "64.2 ± 5.4%"}
{"SMILES": "FC(F)(F)c1ccnc(-c2cc(C(F)(F)F)ccn2)c1.FC(F)(F)c1ccnc(-c2cc(C(F)(F)F)ccn2)c1.[Cl-].[Cl-].[Ru+2].c1csc(-c2ccc(-c3ccc(-c4ccc(-c5nc6c7cccnc7c7ncccc7c6[nH]5)s4)s3)s2)c1", "cell line": "SK-MEL-28", "test": "cell viability", "setting": "normoxia, together with: green light 523 nm, 100 J/cm2", "endpoint": "EC50", "value": "0.12 µM"}
{"SMILES": "COc1cc(CNC(=O)C[C@H](C)CCC=C(C)C)ccc1OCc1cn(-c2ccc([N+](=O)[O-])cc2)nn1", "cell line": "RPMI-8226 leukaemia cells", "test": "SRB", "setting": "10 µM, 48 h", "endpoint": "growth percent", "value": "73.1%"}
{"SMILES": "COc1ccc([C@@H]2CC(=O)c3c(O)cc(O[C@@H]4O[C@H](CO[C@@H]5O[C@@H](C)[C@H](O)[C@@H](O)[C@H]5O)[C@@H](O[C@H]5O[C@H](CO)[C@@H](O)[C@H](O)[C@H]5O)[C@H](O)[C@H]4O)cc3O2)cc1O", "cell line": "A549", "test": "Matrigel Transwell invasion", "setting": "150 µg/mL, 24 h", "endpoint": "invasion", "value": "26 ± 3.13%"}
{"SMILES": "O=C1NCC(Cc2ccccc2)N(CC2CCCN2CC(CC2CCCCC2)N2CC(Cc3ccc(O)cc3)N(CCc3ccccc3)C(=O)C2=O)C1=O (stereo not shown)", "cell line": "WM 266-4", "test": "annexin V flow cytometry", "setting": "100 µM, 24 h, together with: Z-VAD-FMK 10 µM", "endpoint": "late apoptotic cells", "value": "4%"}
{"SMILES": "CC(=O)OC[C@H]1O[C@@H](Sc2sc(C(=O)c3ccc(C)cc3)c(N)c2-c2nc3ccccc3s2)[C@H](OC(C)=O)[C@@H](OC(C)=O)[C@H]1OC(C)=O", "cell line": "IGROV-1", "test": "SRB", "setting": "10 µM, 48 h", "scale": "baseline: untreated", "endpoint": "growth", "value": "58.4%"}
{"SMILES": "CN1CCN(C(=O)N(CCCCCCC(=O)NO)c2ccc(-c3ccc4cnn(C)c4c3)cc2)CC1", "cell line": "MM1.S", "test": "immunoblot, measured: DACT1 and DACT2", "setting": "concentration not given, 24 h", "endpoint": "protein level", "value": "no effect"}
{"SMILES": "COc1cc(CNC(=O)C[C@H](C)CCC=C(C)C)ccc1OCc1cn(-c2ccc(F)cc2)nn1", "cell line": "SF-539 CNS cancer cells", "test": "SRB", "setting": "10 µM, 48 h", "endpoint": "growth percent", "value": "68.4%"}
{"SMILES": "COc1ccc(NC(=O)CCc2nc3cc(Cl)ccc3[nH]c2=O)cc1", "cell line": "unspecified cells", "setting": "concentration not given", "scale": "baseline: untreated control", "endpoint": "BAX level", "value": "4.34 fold"}
{"SMILES": "COc1ccc([C@@H]2CC(=O)c3c(O)cc(O[C@@H]4O[C@H](CO[C@@H]5O[C@@H](C)[C@H](O)[C@@H](O)[C@H]5O)[C@@H](O)[C@H](O)[C@H]4O)cc3O2)cc1O", "cell line": "A549", "test": "cell growth or viability, MTS", "setting": "150 µg/mL, 24 h", "endpoint": "viability", "value": "49.9%"}
{"SMILES": "CC[C@H](C)[C@H](NC(=O)[C@H](Cc1c[nH]cn1)NC(=O)[C@H](Cc1ccccc1)NC(=O)[C@@H](NC(=O)[C@H](C)NC(=O)[C@H](CC(N)=O)NC(=O)[C@H](Cc1c[nH]c2ccccc12)NC(=O)[C@@H](NC(=O)CNC(=O)CNC(=O)[C@H](CCCNC(=N)N)NC(=O)[C@H](CCCNC(=N)N)NC(=O)[C@H](CCCNC(=N)N)NC(=O)[C@H](CCC(N)=O)NC(=O)[C@H](CCCNC(=N)N)NC(=O)[C@H](CCCNC(=N)N)NC(=O)[C@H](CCCCN)NC(=O)[C@H](CCCCN)NC(=O)[C@H](CCCNC(=N)N)NC(=O)CNC(=O)[C@@H](N)Cc1ccc(O)cc1)C(C)C)[C@@H](C)O)C(=O)N[C@@H](Cc1c[nH]c2ccccc12)C(=O)N[C@@H](Cc1c[nH]cn1)C(=O)N[C@@H](CC(=O)O)C(N)=O", "cell line": "HeLa expressing CFP-Htt103Q", "setting": "10 µM", "endpoint": "small Htt103Q aggregates per cell", "value": "decreased"}
